Experimental data pooled from the literature.
Every numbered part comes from another study and shows a few of its results, in no order.

Series 1
Target: Prothrombin, mature alpha-thrombin (F2, Homo sapiens, UniProt P00734)
Method: aptamer microarray, sandwich
Molecule type: DNA with 2'F-ANA
Sample: in vitro
Concentration: 200 nM
Notes: whole 15-mer aptamer, many near background
Added: Cy3 exosite-II aptamer, 400 nM
Reading: higher = stronger binding
Sequence: GGTTGGTGTGGTTGG
`2'F-ANA at 1 2 3 8 9 10 11 13 14 15` — result for “mean fluorescence intensity”: 53.1 a.u.
For `2'F-ANA at 1 3 4 5 7 8 9 11 14`, “mean fluorescence intensity” read 56.6 a.u.
`2'F-ANA at 7 8 10 12 14 15`: “mean fluorescence intensity” 126 a.u.
For `2'F-ANA at 1 4 6 13 14`, “mean fluorescence intensity” read 51.3 a.u.
For `2'F-ANA at 1 2 3 4 7 10 14 15`, “mean fluorescence intensity” read 48.7 a.u.
`2'F-ANA at 2 5 7 9 10` — result for “mean fluorescence intensity”: 51 a.u.
For `2'F-ANA at 6 8 10 11 14 15`, “mean fluorescence intensity” read 89.2 a.u.
For `2'F-ANA at 3 4 9 14 15`, “mean fluorescence intensity” read 347 a.u.
Under “mean fluorescence intensity”, `2'F-ANA at 2 5 6 7 13` is recorded as 109 a.u.
For `2'F-ANA at 1 4 5 6 8 9 11 12 13 14 15`, “mean fluorescence intensity” read 83.9 a.u.
`2'F-ANA at 5 6 8 10 11 13 15` — result for “mean fluorescence intensity”: 48.1 a.u.
For `2'F-ANA at 3 5 6 7 8 11 14`, “mean fluorescence intensity” read 59.9 a.u.
For `2'F-ANA at 1 2 6 7 10 11 13 15`, “mean fluorescence intensity” read 51.3 a.u.
`2'F-ANA at 1 5 8 12 14 15` — result for “mean fluorescence intensity”: 50.5 a.u.
For `2'F-ANA at 1 3 4 5 7 9 11 14 15`, “mean fluorescence intensity” read 84.7 a.u.
Under “mean fluorescence intensity”, `2'F-ANA at 1 3 4 6 7 12 14 15` is recorded as 84.2 a.u.
`2'F-ANA at 1 2 3 4 6 8 10 13 14`: “mean fluorescence intensity” 47.5 a.u.
`2'F-ANA at 3 5 6 8 9 10 14 15` — result for “mean fluorescence intensity”: 60.2 a.u.
`2'F-ANA at 2 3 4 5 7 9 14 15` — result for “mean fluorescence intensity”: 76.9 a.u.
Under “mean fluorescence intensity”, `2'F-ANA at 3 4 12 14 15` is recorded as 462 a.u.
`2'F-ANA at 2 3 4 6 9 10 12 13 15`: “mean fluorescence intensity” 209 a.u.

Series 2
Target: RING finger protein unkempt homolog, zinc fingers 1-6, GST-SBP tag (UNK, Homo sapiens, UniProt Q9C0B0, residues 30-357)
Method: RNA Bind-n-Seq
Molecule type: RNA
Sample: in vitro
Concentration: not given
Notes: RNA with constant flanks, human and mouse sites, ends assumed
Relative to: input RNA pool
Reading: higher = stronger binding
Shared flanks, not repeated: GGGAGUUCUACAGUCCGACGAUC … CAACAGAGGAUUGAGCAUCA
Residues (chain): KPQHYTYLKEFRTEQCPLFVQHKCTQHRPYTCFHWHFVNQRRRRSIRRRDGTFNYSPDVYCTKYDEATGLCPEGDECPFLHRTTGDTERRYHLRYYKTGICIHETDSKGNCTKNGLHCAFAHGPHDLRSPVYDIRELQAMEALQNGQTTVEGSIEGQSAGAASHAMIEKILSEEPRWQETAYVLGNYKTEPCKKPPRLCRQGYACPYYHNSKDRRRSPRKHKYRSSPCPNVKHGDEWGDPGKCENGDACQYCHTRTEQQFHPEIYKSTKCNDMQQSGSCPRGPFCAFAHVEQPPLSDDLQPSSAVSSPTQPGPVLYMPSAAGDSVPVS
`UCAACUGACAACAUCAAAUACCAGCCUAAGGGGGGUCAGGUACAAAUUGUUACUAAGAAGAUAGACUUAAGCCAUGUGACAUCCAAAUGUGGCUCUCUAAAGAACAUCCGUCACAGGCCA` gave a bound/input enrichment of 0.318 ratio.
`AGGAUGAAUCGGACAGAUUCAGAAAUAUAUGAAGAUGCAGUAGAACUUCAGCAGUUUUUUAUUAAAAUUCGUGAUGAACUCUGCAAAAAUGGAGAGAUUCUUCUUUCACCGGCACUCAGC` gave a bound/input enrichment of 0.183 ratio.
With `UGAUUAUUCACUUUAGAUGCUGAUUCUUUUUUUUUUUUUUUUUUGUAUUUUUAAUGGGGGUAGCAGCUGGACCCUUGACCUUCUCAUGCCCACACCCACCCUGCCCUUCCCAUGGCUGCC` the bound/input enrichment was 3.15 ratio.
For `GAUACUGAAUGGUCUUCUCGACCAUCGGAAGUUAGUGAAGCUUUAUUCCAGGCUACUGCAGAAGUAGCUUCAGACUUAGCAAGCAGUCGCUUUAGUGUAUCUCAGCACCCGCUUAUAGGC`, the bound/input enrichment was 0.398 ratio.
The bound/input enrichment of `AAGCAGGUCUGCGGAGAUUAUUUACUAUCUAGAAUGGAUGUUACUAGCUGCAUCUCUUACCGAAAUUUUGCAAGUUGUAUGGGAGACUCCCGUUUGUUGAAUAAAGUUGACGCUUAUAUU` is reported as 0.79 ratio.
With `CAUGGUGGAAAGAGAAAAUGGACUUGCUUUAUCUGUGGAAAAUCAGUACGAGAAAGAACUACUUUGAAAGAACAUUUGAGAAUCCACAGUGGAGAAAAGCCUCACCUUUGUAGUAUUUGU` the bound/input enrichment was 0.206 ratio.
With `GAUGCUCUGAACAUUGAGACAGCAGUCAAGACCAAAGGAGUGGAUGAGGUCACCAUUGUCAACAUCCUGACAAACCGCAGCAAUGUGCAGAGGCAGGACAUUGCCUUCGCCUAUCAGAGA` the bound/input enrichment was 0.0907 ratio.
`GGGUCCCCUUCCUGACUCUUGUGUUUGGAUCUUACAUGAUUGCUCACGGAUUCUUCAGCGUCUAUUCAAUGUGUGUUGAAACCAUUUUCAUCUGCUUCUGUGAAGACCUGGAGAGGAACG` has a bound/input enrichment of 0.238 ratio.
The bound/input enrichment of `GUUUGGCUAAAGCCAAAGAACAGCUUUUCAUAGCCACAUUUUGUAAUUCUUGAUAAGUGAUAGCUUACCAAGCUGUCUUCAUUAAAAACAAAUUUGUCCUUAGCCCUACUUUUUCUCAAA` is reported as 0.489 ratio.
`AAGGCAACACUGGUGGCUUCCUGCCCUUCGCCGCUCCUUGCCUCCCGUUUUGCUGGGUAUUUUAGAUUGGGAGUGACCCCUGUGAUUCCAGCCAUGGGUGCCUCAGCAUCUUCUCCUGCU` has a bound/input enrichment of 0.195 ratio.
With `GAAACUCCCCAUUGUCACUGAGAACCACCAAAUCUGACUUUUACAUUUGGUCUCAGAAUUUAGGUUCCUGCCCUGUUGGUUUUUUUUUUUUUUUUUUAAACAGUUUUCAAAAGUUCUUAA` the bound/input enrichment was 4.83 ratio.

Series 3
Target: RNA binding protein fox-1 homolog 2, RRM domain, GST-SBP tag (RBFOX2, Homo sapiens, UniProt O43251-10, residues 100-194)
Method: RNA Bind-n-Seq
Molecule type: RNA
Sample: in vitro
Concentration: 365 nM
Notes: natural RNA segment, single round, ends assumed
Relative to: no-protein control
Reading: higher = stronger binding
Shared flanks, not repeated: GGGAGUUCUACAGUCCGACGAUC … UGGAAUUCUCGGGUGCCAA
Construct (chain): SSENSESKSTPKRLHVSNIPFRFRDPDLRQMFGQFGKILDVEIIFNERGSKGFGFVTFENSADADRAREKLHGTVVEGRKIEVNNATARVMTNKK
`AAAAAACUCAGAUAUCCUAUACAACCUUUGCUUGUUCUUUUUAUUCUGGUAUCUAAAUACUGAGAAGUUCAUUUAUAAUUCAGCCUUGACUUGAAAACAUAGAUAGUUUA` — result for “RBNS enrichment (R)”: 3.77.
`ACGUUUCCUGUAGUAUGUUUCUUCAUCUCAUCGCCAAGGUAGGCUUGUGUUUUUCAGUGUGUGCCUCCCCGAGCCUCAGCCCCAAGCUGAUUUCUUAUCUGGAAAUGGUA` — result for “RBNS enrichment (R)”: 0.469.
For `GAAGCUUAUAUCUCUCAAAUUAAUGGAUAUUAGCACUUGGAGGAAUGUAGGGGGAUCUCGGAAUGAACUCCUGGGGUUCCUGGUCUCCAGCCCAGCCUGAUGGUGUAAAU`, “RBNS enrichment (R)” read 0.506.
For `CCUUGGCAUGCCUUGCUCACAAUACUCAUUAUGCUGUGUGGGAUUUCCUGAUUACUAGAAGCUGACCUCUGCUAUCCUGGGUAAGAACGCCCUGAGUACGGGUACCAUGC`, “RBNS enrichment (R)” read 0.805.
`UUGUCUGUGAAUGGAACCUCAGUAGGUAAUCCUGAUGAAGCUUAAAACCUUAGGGCAGUGUCUACAUGGGAAACAAGUAUGUGGAAAUUGACAAUCAUUUUUACCAAAUC`: “RBNS enrichment (R)” 0.305.
Under “RBNS enrichment (R)”, `CCAAGCCUCAGGCUGGGCUCAUUCAUAUAAUUGCAAUAAAUGGUACGUGUCCAUUUGGACAGCAGACACUUUGGUGUACUUGUGCAGUCUCUUUUUGGUCUGGCCAUGUC` is recorded as 0.353.
For `UGGAAUUAAUCACUCAACAGGUAUAGUAUUACGACUCAUGUUUACUUUUUAAAAUGAUUUAGACCGAUUUUCAGAUUUUAUUUCGUUAUGAUUAAAGAUGUCUCAUGUAC`, “RBNS enrichment (R)” read 0.381.
For `CCAGGGUGAGCGAGGGGUCCAGGGCCUAGAGGUGCUUCCUGGGGGCGGGGGAAUGCAGCCAGUGUCCCCCUCCCCUCUUCCACCCCAGCUCCAGCCCUGGUCUUGUCUUU`, “RBNS enrichment (R)” read 0.578.
`AGUUAAGCACUUCCUUGGUGUGGGUAAAGAAUAAAGGGGAAAGAAACUACUUUAGAGCCUCUUUUUCUCCCAACUCAUAUUUUUGAUAGGAAAAACAGAAAACCCAUCCA`: “RBNS enrichment (R)” 0.405.
`UACCCAUCCUCCCUUUCUGAACCUUCCCUCAGGGUGGGGCUGGAUUAUGGAGGAAGGAAUGGAUCUUUGGUCAGAUGAGACUAACAGAGGGACUCACUGUCAGAGUUAGC`: “RBNS enrichment (R)” 0.181.
For `CAGUGUCUCUUGAGCAUCCCUUCGCGCCCCCCACCCUCCACUGCCGUCCCUCCCCAGAUGGGGCGUUGAGUCCAUAUUUAAACUGGCCACCCUCACAGUUCUAACUUAGC`, “RBNS enrichment (R)” read 0.769.
`ACCCUUCCUGCUCAAGAUCGUCCUUCCAAUGGCUGUGUGUUUAAAGAUUGUGGGAGCUUCGCUGAACGUUAAUGUGUAGUAAAUGCACCUCCUUGUAUUCCCACUUUCGU` — result for “RBNS enrichment (R)”: 0.648.

Series 4
Target: Histone acetyltransferase KAT6A, both winged helices, GST fusion (KAT6A, Homo sapiens, UniProt Q92794, residues 1-181)
Method: protein binding microarray
Molecule type: double-stranded DNA, one strand shown
Sample: in vitro
Concentration: not given
Notes: 8-mer, flanks averaged, mean of 2 arrays, mostly near background
Relative to: not given
Reading: higher = stronger binding
Residues (chain): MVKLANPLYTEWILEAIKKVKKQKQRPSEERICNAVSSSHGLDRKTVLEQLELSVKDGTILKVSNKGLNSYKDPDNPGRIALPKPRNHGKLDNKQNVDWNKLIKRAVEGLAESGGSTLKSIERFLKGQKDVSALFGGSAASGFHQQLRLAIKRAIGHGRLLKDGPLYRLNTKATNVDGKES
`CGGCGACG` gave an E-score of 0.317.
For `CCGGTCGC`, the E-score was 0.265.
`GGCTAGCA` has an E-score of -0.0936.
With `ACTCCTGC` the E-score was -0.183.
`GGCGAAAA` has an E-score of 0.154.
The E-score of `CAGCAGCC` is reported as -0.15.
`ACATGTAG` gave an E-score of -0.0956.
The E-score of `ACTATGAT` is reported as -0.144.
With `ACTCGGGC` the E-score was 0.0463.
With `GTTTAGCA` the E-score was -0.0199.
`AAGCCAGC` gave an E-score of -0.177.
With `GGTCATAA` the E-score was -0.0335.
`CATGATAC` gave an E-score of -0.073.
`ACCCATTC` has an E-score of -0.237.
For `ACCGTAAC`, the E-score was 0.2.
`CAGATGCC` gave an E-score of -0.0721.
`GGTACATA` gave an E-score of -0.0518.
